Measured values pooled from the literature.
Each numbered part is a random draw from the data of one study; scales do not carry over between parts.

Block 1
Cell line: yeast with cyclin A1-Cln2 chimera
Observed: cell growth
Mode: binder
Method: competitive growth deep sequencing
Molecule type: peptide
Concentration: concentration not given
Setting: peptide tiling library
Reading: direction not given
| Molecule | growth enrichment score |
| --- | --- |
| TTTTSPRTPPPLTVQD | -0.072 |
| RRRIKLPESDSSED | 0.424 |
| GFGFLLFICKLTF | -1.25 |
| PFSENVSAVQKLDFSD | 0.696 |
| KSKHEEEEWTDDDLVE | 0.196 |
| VKTKKRLNFDDK | 0.233 |
| NSMKELNFSHLPSNSV | 0.29 |
| RQVRRDLFAF | 0.0871 |
| RVSGLLSWTLSRVLWL | 0.722 |
| SPPRGRRLFPPGPAGF | -0.602 |
| NEGVSNAVRRSLYIRD | 0.19 |

Block 2
Target: Ras GTPase-activating protein-binding protein 1, full length (G3BP1, Homo sapiens, UniProt Q13283)
Chain of UniProt Q13283 (whole entry, looked up): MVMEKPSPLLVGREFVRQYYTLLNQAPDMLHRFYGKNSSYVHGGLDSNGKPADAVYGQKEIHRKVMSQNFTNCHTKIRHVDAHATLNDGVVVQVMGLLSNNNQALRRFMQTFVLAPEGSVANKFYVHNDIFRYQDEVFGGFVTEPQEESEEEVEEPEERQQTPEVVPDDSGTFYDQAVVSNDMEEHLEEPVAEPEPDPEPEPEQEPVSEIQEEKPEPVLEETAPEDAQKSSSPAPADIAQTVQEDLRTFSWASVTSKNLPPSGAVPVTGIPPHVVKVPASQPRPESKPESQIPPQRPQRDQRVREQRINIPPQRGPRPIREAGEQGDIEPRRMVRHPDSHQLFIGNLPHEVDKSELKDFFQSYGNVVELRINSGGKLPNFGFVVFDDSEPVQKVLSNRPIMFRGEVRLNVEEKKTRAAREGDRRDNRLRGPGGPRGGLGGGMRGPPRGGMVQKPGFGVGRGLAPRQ
Method: RNA Bind-n-Seq
Molecule type: RNA
Medium: in vitro
Concentration: 200 nM
Setting: whole 134-nt RNA, ends assumed
With: 150 mM KCl
Baseline: input library
Reading: higher = stronger binding
Constant ends, left off below: GGGAGUUCUACAGUCCGACGAUC … UGGAAUUCUCGGGUGUCAAGG
| Sequence | log2 enrichment |
| --- | --- |
| UCCUGUGCUACACAUCGUAUGUACCGAAUCGGUUUUUUGGGUUUUUUGGGUUUUUUGGGGAAAGUAUUAUGUUACGCCGUUCGGAUCUGC | -0.469 |
| UCAAGUCCUGUGCUACACAUCGUAUGUACCGAAUCGGAGGUUUGGAAAAAAAGGAAAGUAUUAUGUUACGCCGUUCGGAUCUGCACUUCC | -1.18 |
| CAAGUCCUGUGCUACACAUCGUAUGUACCGAAUCAAAUUUAAAUUUAAACCCAAAAAAGUAUUAUGUUACGCCGUUCGGAUCUGCACUUC | -0.315 |
| ACCAUGCAGGUGGGCAUCUUUGGGAAGUGGGGCAAGGGGGGGAUAGGGAGGGGGUUAACACUUUGGGAACAGGUGGUCCCAGGUCGUUUC | 1.51 |
| CCUCAAGUCCUGUGCUACACAUCGUAUGUACCGAAUCGGGUGGUGGGGUGGGAAAGUAUUAUGUUACGCCGUUCGGAUCUGCACUUCCAG | 0.951 |
| CUCAAGUCCUGUGCUACACAUCGUAUGUACCGAAUCGGGGCCGGGCCGGCCGGGAAAGUAUUAUGUUACGCCGUUCGGAUCUGCACUUCC | -0.172 |
| GCAGGAAGUAAAAACAAAUGGAAAUGCUUCGGAUAGUGGCAGGGGUGGGGGUUGCUAAGGAAAGGGAAAGAUGGGAGUGGGUAAAGAGUU | 0.586 |
| ACCAUGCAGGUGGGCAUCUUUGGGAAGUGGGGAAAGGGGGGGAUAGGGAGGGGGGUAACACUUUGGGAACAGGUGGUCCCAGGUCGUUUC | 1.28 |
| AGUCCUGUGCUACACAUCGUAUGUACCGAAUCGGGGAAAAAGGGGUUUGGGGAGGGGAAAGUAUUAUGUUACGCCGUUCGGAUCUGCACU | 0.425 |
| UUGCCCUGGUGGCAUGCGGGGAGGAAGAGGUGGCCUCAUGGAUCGUGGUGGUCCCGGUGGAAUGUUCAGAGGUGGCCGUGGUGGAGACAG | 0.123 |
| CAAGUCCUGUGCUACACAUCGUAUGUACCGAAUCGGGGUUUGGGGUGGGGAGGGGAAAGUAUUAUGUUACGCCGUUCGGAUCUGCACUUC | 1.3 |
| GCAGGAAGUAAAAACAAAUGGAAAUGCUUCGGAUAGUGGCUGGGGUGGGGGUUGCUAAGGAAAGGGUGGGAUGGGAGUGGGUAAAGAGUU | 0.947 |
| AGUCCUGUGCUACACAUCGUAUGUACCGAAUCGGGUUUUGGGUUUUGGGGUUUUGGGGAAAGUAUUAUGUUACGCCGUUCGGAUCUGCAC | 0.00287 |
| GCAGGAAGUAAAAACAAAUGGAAAUGCUUCGGAUAGUGGCAGGGGUGGGGGUUGCUAAGGAAAGGGUGGGAUGGGAAAGGGUAAAGAGUU | 0.717 |

Block 3
Target: Sal-like protein 4, full length isoform B (SALL4, Homo sapiens, UniProt Q9UJQ4-2, residues 1-616)
Method: universal PBM
Molecule type: double-stranded DNA, one strand shown
Medium: in vitro
Concentration: not given
Setting: 8-mer, flanks averaged, mean of replicates
Reading: higher = stronger binding
| Sequence | E-score |
| --- | --- |
| AAAAGGTA | 0.11 |
| CCGCGCAA | -0.0876 |
| ACGGTCGA | -0.192 |
| CGGCGCAA | -0.254 |
| AGAAGGGA | -0.231 |
| CTCGCAAC | 0.0215 |
| GAATCGCC | -0.228 |
| CTCCACTC | -0.1 |
| ATAACTAC | 0.374 |
| CTTGGGAC | -0.165 |
| ACGGCGCG | -0.115 |
| GGTTTTCA | 0.166 |
| GCTTACGA | 0.0509 |
| ACTAAGTA | 0.0551 |
| TGAGGCAA | -0.00354 |
| ATACTATC | 0.227 |
| GAGAACTA | 0.133 |
| GGTCCGAC | -0.341 |

Block 4
Target: RNA binding protein fox-1 homolog 2, RRM domain, GST-SBP tag (RBFOX2, Homo sapiens, UniProt O43251-10, residues 100-194)
Method: RNA Bind-n-Seq
Molecule type: RNA
Medium: in vitro
Concentration: 365 nM
Setting: natural RNA segment, single round, ends assumed
Baseline: no-protein control
Reading: higher = stronger binding
Constant ends, left off below: GGGAGUUCUACAGUCCGACGAUC … UGGAAUUCUCGGGUGCCAA
Target sequence (chain): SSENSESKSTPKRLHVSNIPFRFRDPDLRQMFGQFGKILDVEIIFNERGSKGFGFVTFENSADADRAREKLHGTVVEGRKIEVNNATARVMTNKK
| Sequence | RBNS enrichment (R) |
| --- | --- |
| UCCCAUCAAGAUGGGUUAGUAGCAGUGUCUGUUUUUGAAUGCCAAGUGUGAUUUCCAACAAUUCUGCUCUGGUUAUUUCAUUGAAGACAUCUUUGCACAUGUGACCAUGC | 0.419 |
| UCAGAGUGGAACAAAGAGUGGGAAGAGGUGAUCUGUAAUGUUACAAAUUGUGCUAUUACUCCAAGGUCCAACUUUUCCAGUGCAUUACAUGGUAUUGUAUAUCAGUGGAG | 0.333 |
| UCAGAGAAACAAGAGCACAAGUAAAUGAACACAAAUCCUUCCUUAGGACCACUGCACCACAGGCCUUGUCCAGUGUUCUAUCCCCUCUGAAGAGUCAGGCGAGGCCUGAU | 0.709 |
| CAAAAGCAGCCUCUGGCCUUCCCUCCACCGCUUUGCUCCAUCUGGCUUACCACUCUCCAGGGCCUCCUGGGGAGCCUGUCCUGUGUUCACUUUGUUUCAGGCUGGUCUGU | 0.284 |
| AAUGAUUUGGACAAGCUCCUGUGUGUGCUGAGACCUGGCUGGCCAGCUGCUAGAGGGGAAAAACAAUUAAGACAAUGGAAAAGGAAAAAGGAAUGAAGGAACCUCCCUCC | 1.23 |
| GUUUGUUUUGUGCAUUAAGGGACAUAACUUGGGACUCAAAGGGAUUGUUUCGCUGACCCCGCUCUUGUGUGUUCCCUCUGGUGCCCACCCCAGGGCAUCUGCCAACUCCA | 0.549 |
| AGCUGCUGGCCAGACCCUGGCGCUGCCACAGUCCUGGCACUGCCCAAGGCCAUACCUGCCUAGCCCUUUGGCUCCAUCCUGUGGAUGCCCACUCACCCCUCAGACUCCUG | 0.158 |
| CCAAGCGAGACUAGCAGUCAUCCAGACCCCUGCCCACCUAGACUGUUUUCUGAGCCCUCCGGACCUGAGACUGAGUUUUGUCUUUUUCCUUUAGCCUUAGCAGUGGGUAU | 0.806 |
| CUUUAAUUCACUAAUUAAUAGUGACCUGUUGUUAAAUCCAAAUCCACUUUGCUGAAAAAUACUGUACAUGUGUAAAAUGUUCAGUUGUUUUUUUGUAAAAUAUAGAACAG | 0.397 |
| CCGGUGGGCAGUGGGUGGAUCCUGGUUUCGUGUGCUGCCCAUGCACCUUCCAGCCCGGGGCCAGCUUGGCAGGGAUCCCCAGGAGGCCUGGGCCGCCCAGAGGCUCCUCU | 0.477 |
| ACUCUGCUUUGCCCAAGUGUGACAGCACUGGGGAGGAGAGACAGGAUAAAGGGCAGAUGUCAGCAAUACUAAGGGCUUCCUCAUGGGAGGGCAUGAGGCUCCACUCAUUG | 0.394 |
| AGCAAGGCUUCUGUGUACUUGCCUGAAAACAAAGGAAGGUGCUGGUCAUUCCAUUUCUUUUGUUUGAAGCUAAAGAGAUGUGUAGCUCACAGGGGCUACCUUACCAGUAU | 0.462 |
